Measured values pooled from the literature.
A part holds a random share of what one study measured. Positions count from the first letter of the parent shown.

Study 1 — target: CCNB2, cyclin fold, Cln2 fusion (human); method: yeast growth competition, sequencing; sample: yeast; setting: strong parent motif; baseline: not given; reading: higher = stronger binding
Parent: viral docking peptide; TSVRRALFTGGSD; partner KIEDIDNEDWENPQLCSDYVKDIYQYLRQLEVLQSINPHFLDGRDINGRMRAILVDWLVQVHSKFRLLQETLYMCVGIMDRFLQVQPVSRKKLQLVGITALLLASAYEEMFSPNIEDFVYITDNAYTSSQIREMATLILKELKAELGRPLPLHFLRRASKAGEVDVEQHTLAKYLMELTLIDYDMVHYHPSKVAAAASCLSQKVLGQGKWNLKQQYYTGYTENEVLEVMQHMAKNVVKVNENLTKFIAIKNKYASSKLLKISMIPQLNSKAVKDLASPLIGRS
Under “normalised enrichment score”, `TSVRRALFTIGSD [G10I]` is recorded as 0.449.
Under “normalised enrichment score”, `TSVREALFTGGSD [R5E]` is recorded as -0.192.
For `TSVRRALFTGGCD [S12C]`, “normalised enrichment score” read 0.766.
`TSVRRAWFTGGSD [L7W]`: “normalised enrichment score” 0.203.

Study 2 — read-out: peptide-MHC binding; molecule type: peptide; concentration: concentration not given
Target: HLA class I histocompatibility antigen, A alpha chain, allele A*80:01 (Homo sapiens, UniProt P04439)
For `TELPLAYER`, binding read “inactive”.
For `TTEANAGQF`, binding read “inactive”.
For `LSEEANWAF`, binding read “inactive”.
`MPDTLFEGV` — result for binding: “inactive”.
`RWASGVSEI` — result for binding: “inactive”.

Study 3 — Substance: HSPD1 (Homo sapiens, UniProt P10809); method: cross-linking MS; sample: cell fractions
For PYCR2 (Homo sapiens, UniProt Q96C36); together with: DSSO: cross-linked residues read “S70 to K283”.
MED13L (Homo sapiens, UniProt Q71F56); together with: DSSO — cross-linked residues: “K364 to K478”.
For LYRM2 (Homo sapiens, UniProt Q9NU23); together with: DMTMM: cross-linked residues read “D399 to K14”.

Study 4 — method: RNA Bind-n-Seq; molecule type: RNA; sample: in vitro; concentration: 365 nM; baseline: no-protein control; reading: higher = stronger binding
Target: RNA binding protein fox-1 homolog 2, RRM domain, GST-SBP tag (RBFOX2, Homo sapiens, UniProt O43251-10, residues 100-194)
Setting: natural RNA segment, single round, ends assumed
`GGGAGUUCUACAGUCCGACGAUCUACAACAUGUACAUAAGAAUACACAUAAUUCAACUAGAGAUUUGAAGAAUUGGCUUGUAUAGUUAUAACAACCACAGUAGAAACAUUUCUACUUUGAGAGAAUUUCAAUAUGGAAUUCUCGGGUGCCAA`: “RBNS enrichment (R)” 0.989.
For `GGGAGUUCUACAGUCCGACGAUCUUUUAAAAUAGAGAUAGUUACAUAUUUUCCUCAUCUAGGCUGUGUCACUAUUGGGUGCAAGGAUAUCAUUGUUGGCUAGAUUCAUUUUGUAUAAUCAUGUAUCCUCUUGUUGGAAUUCUCGGGUGCCAA`, “RBNS enrichment (R)” read 0.373.
For `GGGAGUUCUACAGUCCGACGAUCGUGGGAAAUGAAACAGUGUUCUGAUCCAUUGCCAAAGGAUGUAGGAAAACAGUUGGGUUUUGUUCAACCUACUGUAAGCUCUGGUGUAUGUUCUCAAGGCUAAUUUAUCUUGGAAUUCUCGGGUGCCAA`, “RBNS enrichment (R)” read 1.54.
`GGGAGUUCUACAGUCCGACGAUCUAAUGCAGACUGUAUUCUUGCAGCGUGUUGUUUCCUUUGUGACUCAAGGUUGAAUUAAAAUGCCUGUGAACUGCAAACUUGCUUAUGAUUGACUUGGUGCAAUAAAGUUCUGGAAUUCUCGGGUGCCAA` — result for “RBNS enrichment (R)”: 0.587.
`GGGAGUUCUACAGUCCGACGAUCAUGGUCAGUUAGGAUGACAAUAGUAAGUUCAUCUACAGCAUAAAAUGUGAAAUGCUUUCAUCCUCAUUGCCCAUUUCCAACUACCAUUCUGUUUCUCCUCUAUUGUUCAUUGGAAUUCUCGGGUGCCAA`: “RBNS enrichment (R)” 1.35.
`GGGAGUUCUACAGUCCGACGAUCUUUUUGUAUUUAAUUGACAUGAAUGUAAAGGGGACAGCUCAGGGUUGUUUUGGAGCCUGUUGACUUUGUAUCUCUGCCUGUGAUUUUCUUUUCUAAAUGAAACUCCAUGUUGGAAUUCUCGGGUGCCAA`: “RBNS enrichment (R)” 1.29.
For `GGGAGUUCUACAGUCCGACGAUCAUAAAUACCAGAAUUUACCAGAGUACACUUUUCUCUUCAGAUGACUCAAUUAUUAAAUAAAAGAAUAUUUCUUAUUUCUGGGUCAAUAUAAGGUACUGACUUCUGAUGCAUGGAAUUCUCGGGUGCCAA`, “RBNS enrichment (R)” read 2.23.
`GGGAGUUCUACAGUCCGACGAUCGGCAUCCCAGCGCUGGACAACUUCCUGGACAAACUUAGGCAGCCUGAUACUGCCACAUGCUGCACAGUGCCCACCCAUCAGAAGACACCUUGAGACUGUCCCACAGUGCUUGGAAUUCUCGGGUGCCAA`: “RBNS enrichment (R)” 1.13.

Repeated from above (study 3):
MED13L (Homo sapiens, UniProt Q71F56); together with: DSSO — cross-linked residues: “K364 to K478”.
For LYRM2 (Homo sapiens, UniProt Q9NU23); together with: DMTMM: cross-linked residues read “D399 to K14”.
